Published values of several laboratories.
A part holds a random share of what one study measured.
Sequence of UniProt P35348 (whole entry, looked up): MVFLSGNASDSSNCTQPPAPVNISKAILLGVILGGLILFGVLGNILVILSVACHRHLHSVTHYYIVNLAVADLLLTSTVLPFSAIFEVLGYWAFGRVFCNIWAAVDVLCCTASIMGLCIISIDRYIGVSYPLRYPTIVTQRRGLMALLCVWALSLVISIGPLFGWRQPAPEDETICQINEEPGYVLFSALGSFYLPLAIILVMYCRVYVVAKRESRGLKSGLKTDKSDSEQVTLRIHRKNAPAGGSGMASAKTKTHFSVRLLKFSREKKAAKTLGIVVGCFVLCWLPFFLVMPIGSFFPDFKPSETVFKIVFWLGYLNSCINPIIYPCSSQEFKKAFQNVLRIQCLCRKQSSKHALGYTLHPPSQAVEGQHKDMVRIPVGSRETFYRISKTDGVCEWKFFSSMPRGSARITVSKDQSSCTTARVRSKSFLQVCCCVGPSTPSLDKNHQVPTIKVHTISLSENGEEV
Sequence of UniProt Q5BJF2 (whole entry, looked up): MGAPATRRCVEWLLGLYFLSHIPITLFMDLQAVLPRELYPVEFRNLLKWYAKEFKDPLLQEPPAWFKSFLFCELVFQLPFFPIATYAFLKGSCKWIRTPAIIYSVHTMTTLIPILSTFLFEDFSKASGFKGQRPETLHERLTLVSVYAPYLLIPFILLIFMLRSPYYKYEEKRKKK
Sequence of UniProt P21917 (whole entry, looked up): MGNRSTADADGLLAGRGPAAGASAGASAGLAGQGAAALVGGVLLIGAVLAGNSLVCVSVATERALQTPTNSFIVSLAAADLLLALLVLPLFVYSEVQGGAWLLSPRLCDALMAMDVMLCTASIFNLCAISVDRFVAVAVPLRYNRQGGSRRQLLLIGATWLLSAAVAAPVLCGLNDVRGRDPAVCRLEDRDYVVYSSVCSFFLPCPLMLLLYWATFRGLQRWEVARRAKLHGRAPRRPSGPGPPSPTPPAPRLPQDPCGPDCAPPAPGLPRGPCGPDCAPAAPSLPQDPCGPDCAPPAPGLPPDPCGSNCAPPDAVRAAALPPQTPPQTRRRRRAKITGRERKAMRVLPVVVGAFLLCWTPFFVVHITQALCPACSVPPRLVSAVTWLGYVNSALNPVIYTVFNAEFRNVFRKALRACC
Sequence of UniProt P07550 (whole entry, looked up): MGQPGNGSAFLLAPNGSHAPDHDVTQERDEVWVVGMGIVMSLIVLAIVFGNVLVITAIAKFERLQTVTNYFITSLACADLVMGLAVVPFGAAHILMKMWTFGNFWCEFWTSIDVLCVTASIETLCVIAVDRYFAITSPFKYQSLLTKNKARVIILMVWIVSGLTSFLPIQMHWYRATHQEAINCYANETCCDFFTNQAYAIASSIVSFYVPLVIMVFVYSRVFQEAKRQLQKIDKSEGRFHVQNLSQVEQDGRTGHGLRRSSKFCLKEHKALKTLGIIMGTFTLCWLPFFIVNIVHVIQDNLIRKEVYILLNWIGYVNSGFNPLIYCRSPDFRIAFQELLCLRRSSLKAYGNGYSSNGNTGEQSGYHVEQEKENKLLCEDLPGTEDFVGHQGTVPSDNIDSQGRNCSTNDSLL
Sequence of UniProt P08588 (whole entry, looked up): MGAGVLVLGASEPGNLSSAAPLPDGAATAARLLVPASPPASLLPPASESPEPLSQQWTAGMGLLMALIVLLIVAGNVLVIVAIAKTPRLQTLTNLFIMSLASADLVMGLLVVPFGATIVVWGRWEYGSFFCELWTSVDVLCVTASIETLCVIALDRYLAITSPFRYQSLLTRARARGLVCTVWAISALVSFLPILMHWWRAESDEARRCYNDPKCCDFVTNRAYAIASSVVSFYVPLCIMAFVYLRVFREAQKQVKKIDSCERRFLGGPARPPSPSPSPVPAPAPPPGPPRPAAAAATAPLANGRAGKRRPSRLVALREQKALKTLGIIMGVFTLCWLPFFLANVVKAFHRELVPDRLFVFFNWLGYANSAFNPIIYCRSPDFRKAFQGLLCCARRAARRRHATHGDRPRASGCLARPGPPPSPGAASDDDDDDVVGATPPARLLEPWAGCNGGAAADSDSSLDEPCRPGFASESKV
Sequence of UniProt P50406 (whole entry, looked up): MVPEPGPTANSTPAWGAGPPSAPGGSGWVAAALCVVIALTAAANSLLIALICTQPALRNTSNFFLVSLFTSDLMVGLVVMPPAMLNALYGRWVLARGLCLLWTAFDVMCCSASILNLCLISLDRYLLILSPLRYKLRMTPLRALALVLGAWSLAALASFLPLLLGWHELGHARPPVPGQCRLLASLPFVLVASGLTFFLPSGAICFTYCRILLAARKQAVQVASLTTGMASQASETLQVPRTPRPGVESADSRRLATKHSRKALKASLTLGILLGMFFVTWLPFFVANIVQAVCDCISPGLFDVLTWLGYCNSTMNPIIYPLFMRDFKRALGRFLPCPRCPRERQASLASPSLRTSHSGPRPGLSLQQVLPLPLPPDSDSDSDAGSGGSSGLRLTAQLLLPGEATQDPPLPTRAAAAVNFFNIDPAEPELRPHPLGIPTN
Sequence of UniProt P14416 (whole entry, looked up): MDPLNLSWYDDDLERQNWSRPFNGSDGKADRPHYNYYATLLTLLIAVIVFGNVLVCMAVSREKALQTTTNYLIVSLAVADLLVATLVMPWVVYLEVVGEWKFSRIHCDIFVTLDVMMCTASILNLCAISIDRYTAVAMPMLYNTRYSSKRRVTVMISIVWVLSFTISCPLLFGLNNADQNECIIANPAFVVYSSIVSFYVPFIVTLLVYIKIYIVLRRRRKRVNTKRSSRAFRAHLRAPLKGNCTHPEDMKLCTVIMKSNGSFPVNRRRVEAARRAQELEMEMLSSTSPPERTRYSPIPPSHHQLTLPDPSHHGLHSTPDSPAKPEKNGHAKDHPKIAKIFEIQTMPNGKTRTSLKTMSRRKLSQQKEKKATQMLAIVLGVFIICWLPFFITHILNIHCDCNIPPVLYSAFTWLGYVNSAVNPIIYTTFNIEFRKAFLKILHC
Sequence of UniProt P08913 (whole entry, looked up): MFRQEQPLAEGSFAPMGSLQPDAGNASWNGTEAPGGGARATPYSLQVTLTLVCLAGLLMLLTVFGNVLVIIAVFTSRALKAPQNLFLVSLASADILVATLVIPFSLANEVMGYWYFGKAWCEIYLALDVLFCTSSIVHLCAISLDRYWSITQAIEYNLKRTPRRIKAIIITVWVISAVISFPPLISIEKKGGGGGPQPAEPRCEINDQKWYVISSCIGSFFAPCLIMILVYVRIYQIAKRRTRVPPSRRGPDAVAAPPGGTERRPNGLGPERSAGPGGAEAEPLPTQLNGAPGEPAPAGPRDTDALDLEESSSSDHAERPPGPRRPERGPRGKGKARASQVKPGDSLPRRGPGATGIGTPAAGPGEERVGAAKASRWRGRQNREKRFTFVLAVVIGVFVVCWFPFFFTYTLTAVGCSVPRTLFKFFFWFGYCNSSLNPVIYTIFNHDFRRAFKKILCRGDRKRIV
Sequence of UniProt Q99720 (whole entry, looked up): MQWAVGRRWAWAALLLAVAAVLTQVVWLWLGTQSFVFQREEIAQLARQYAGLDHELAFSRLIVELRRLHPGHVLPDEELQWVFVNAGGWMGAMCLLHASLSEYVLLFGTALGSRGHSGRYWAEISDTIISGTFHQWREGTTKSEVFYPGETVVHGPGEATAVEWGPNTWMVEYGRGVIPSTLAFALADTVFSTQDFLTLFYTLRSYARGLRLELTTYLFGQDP
Sequence of UniProt P35462 (whole entry, looked up): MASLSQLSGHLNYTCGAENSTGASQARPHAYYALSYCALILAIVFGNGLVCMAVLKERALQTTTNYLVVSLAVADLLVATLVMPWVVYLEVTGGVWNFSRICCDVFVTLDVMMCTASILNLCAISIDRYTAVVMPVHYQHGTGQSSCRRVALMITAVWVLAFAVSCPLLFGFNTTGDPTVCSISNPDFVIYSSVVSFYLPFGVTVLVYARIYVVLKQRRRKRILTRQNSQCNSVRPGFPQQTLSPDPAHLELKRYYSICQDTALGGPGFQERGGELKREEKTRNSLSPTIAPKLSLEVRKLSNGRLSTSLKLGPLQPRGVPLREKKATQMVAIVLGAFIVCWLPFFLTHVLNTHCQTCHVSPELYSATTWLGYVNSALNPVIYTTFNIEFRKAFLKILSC

Set 1
SMILES: C=CCc1ccc(O)c(-c2ccc(O)c(CC=C)c2)c1
Read-out: chloride current
Technique: whole-cell voltage clamp
ANO1 del476-501/M544A: Anoctamin-1 (ANO1, Homo sapiens, UniProt Q5XXA6, del476-501/M544A)
Sequence of UniProt Q5XXA6 (whole entry, unmodified, looked up): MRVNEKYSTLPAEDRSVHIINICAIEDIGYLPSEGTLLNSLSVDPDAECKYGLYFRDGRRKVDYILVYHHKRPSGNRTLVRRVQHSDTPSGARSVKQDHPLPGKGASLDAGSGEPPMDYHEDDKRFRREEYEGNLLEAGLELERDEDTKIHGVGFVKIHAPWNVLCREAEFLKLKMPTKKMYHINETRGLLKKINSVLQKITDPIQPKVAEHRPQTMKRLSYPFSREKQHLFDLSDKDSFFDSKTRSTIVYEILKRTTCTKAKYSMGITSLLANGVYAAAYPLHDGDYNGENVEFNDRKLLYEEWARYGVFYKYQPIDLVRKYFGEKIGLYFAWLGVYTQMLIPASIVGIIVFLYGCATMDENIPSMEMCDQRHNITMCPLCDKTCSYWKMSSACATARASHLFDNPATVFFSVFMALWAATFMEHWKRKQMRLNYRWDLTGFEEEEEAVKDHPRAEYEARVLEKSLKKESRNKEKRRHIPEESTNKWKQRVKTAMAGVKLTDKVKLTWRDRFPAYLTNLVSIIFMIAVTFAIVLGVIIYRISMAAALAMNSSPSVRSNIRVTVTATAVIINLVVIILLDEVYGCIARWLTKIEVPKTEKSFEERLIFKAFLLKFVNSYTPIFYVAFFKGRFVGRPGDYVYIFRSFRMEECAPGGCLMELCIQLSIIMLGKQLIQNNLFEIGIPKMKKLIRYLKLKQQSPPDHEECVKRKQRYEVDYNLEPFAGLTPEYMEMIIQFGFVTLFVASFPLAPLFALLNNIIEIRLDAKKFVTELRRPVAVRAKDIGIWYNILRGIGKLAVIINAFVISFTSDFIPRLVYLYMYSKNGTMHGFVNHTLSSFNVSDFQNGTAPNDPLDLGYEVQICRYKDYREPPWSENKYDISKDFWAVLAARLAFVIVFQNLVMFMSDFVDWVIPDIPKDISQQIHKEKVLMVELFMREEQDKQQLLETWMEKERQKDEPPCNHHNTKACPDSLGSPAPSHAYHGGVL
ANO1 del476-501/F623A: Anoctamin-1 (ANO1, Homo sapiens, UniProt Q5XXA6, del476-501/F623A)
ANO1 D383A/del476-501: Anoctamin-1 (ANO1, Homo sapiens, UniProt Q5XXA6, D383A/del476-501)
target	test	conditions	IC50
ANO1 del476-501/M544A		membrane voltage 20 mV	3.44 µM
Anoctamin-1 (ANO1, Homo sapiens, UniProt Q5XXA6, del476-501/F628Y)	inhibitor	40 mV holding voltage	24.7 µM
Anoctamin-1 (ANO1, Homo sapiens, UniProt Q5XXA6, del476-501/F803A)		membrane voltage 60 mV	11.7 µM
ANO1 del476-501/F623A		membrane voltage -80 mV	18.5 µM
Anoctamin-1 (ANO1, Homo sapiens, UniProt Q5XXA6, del476-501)	inhibitor	60 mV voltage, together with: 300 nM Ca2+	4.02 µM
Anoctamin-1 (ANO1, Homo sapiens, UniProt Q5XXA6, del476-501/E650A)		membrane voltage -20 mV	3.63 µM
ANO1 D383A/del476-501		membrane voltage -60 mV	14.3 µM
ANO1 del476-501/F623A		membrane voltage -20 mV	9.52 µM
ANO1 del476-501/M544A		membrane voltage -40 mV	3.64 µM
ANO1 D383A/del476-501		membrane voltage -40 mV	9.59 µM
Anoctamin-1 (ANO1, Homo sapiens, UniProt Q5XXA6, del476-501/F807I)	inhibitor	F781I mutant at 40 mV	6.19 µM

Set 2
Species: mouse
Medium: microsomes or S9
Tested at: 2 µM
Time: 0.5 h
SMILES	remaining compound [%]
Clc1ccc2ccn(Cc3ccccc3Br)c2n1	4.73
Cc1ccc(Cn2cccc(NC(=O)NC3CCOC3C)c2=O)cc1 (centres unmarked)	55.7
CCn1c(=O)c2sccc2n2c(CCC(=O)NCc3ccc(F)cc3)nnc12	6.95
O=C(C1CCOCC1)N1CCC(Oc2nccnc2N2CCOCC2)C1 (centres unmarked)	0.215
CCOC(=O)Cn1c(=N)sc2cc3c(cc21)OCCO3	1.32
CC(C)(C)C(O)CN1C2=NCCN2c2ccccc21 (centres unmarked)	97.9
Cc1oc(C)c(C(=O)OC(C)C(=O)N2CC(C)OC(C)C2)c1Br (centres unmarked)	0.67
CSc1c(C(C)=O)c(=O)nc2scc(C)n12	0.253
CCc1nn2c(nnc3c(=O)n(NC(=O)c4ccccc4C)ccc32)c1-c1ccccc1	84.3
CC1=C(c2ccc(F)cc2)S(=O)(=O)N=C1Nc1ccc2[nH]c(C(F)(F)F)nc2c1	72.6
Cc1ccccc1-c1nc2ccccc2cc1Cn1nc(NCCCO)c2c(N)ncnc21	3.36
CCN(CC)S(=O)(=O)c1ccc(S(=O)(=O)NC(C)c2nncn2C)cc1 (centres unmarked)	61.4
CCOc1ccc(-c2c(C)n[nH]c2NC(=O)c2cc(OC)cc(OC)c2)cc1OCC	0.309
C[C@@H]1[C@@H](CO)[C@](O)(C(F)(F)F)c2cc([N+](=O)[O-])cn21	95.6

Set 3
Structure (SMILES): CCS(=O)(=O)c1cc2cc(C[C@@](O)(CC(C)(C)c3ccc(F)cc3C(N)=O)C(F)(F)F)[nH]c2cn1
Read-out: binding
Technique: radioligand binding
Tested at: 10 µM
target	inhibition
ADRB1 (Homo sapiens, UniProt P08588)	-8.85%
DRD4 (Homo sapiens, UniProt P21917)	5.32%
ADRB2 (Homo sapiens, UniProt P07550)	15.2%
CHRM5 (Homo sapiens, UniProt P08912)	-0.62%
DRD3 (Homo sapiens, UniProt P35462)	1.8%
HTR6 (Homo sapiens, UniProt P50406)	-3.13%
ADRA1A (Homo sapiens, UniProt P35348)	-10.1%
ADRA2A (Homo sapiens, UniProt P08913)	-5.76%
TMEM97 (Homo sapiens, UniProt Q5BJF2)	-13%
SIGMAR1 (Homo sapiens, UniProt Q99720)	8.26%
DRD2 (Homo sapiens, UniProt P14416)	-8.41%

Set 4
Organism: Sarcocystis neurona
Read-out: parasite growth
Tested at: 10 µM
Notes: second screen
Baseline: untreated
SMILES	log2 fold change
C[C@]12CCC(=O)C=C1CC[C@@H]1[C@@H]2C(=O)C[C@@]2(C)[C@H]1CC[C@]2(O)C(=O)CO	-0.0535
CCCCC(=O)O[C@H]1CC[C@H]2[C@@H]3CCc4cc(O)ccc4[C@H]3CC[C@]12C	0.53
CC(C)(C)NCC(O)c1ccc(O)c(CO)c1.CC(C)(C)NCC(O)c1ccc(O)c(CO)c1.O=S(=O)(O)O (centres unmarked)	0.4
C[N+]1(C)CCC(OC(=O)C(O)(c2ccccc2)C2CCCC2)C1.[Br-] (centres unmarked)	0.04
CCCN[C@H]1CCc2nc(N)sc2C1.Cl	0.73
COc1cc(C[C@@H](CO)[C@H](CO)Cc2ccc(O)c(OC)c2)ccc1O	0.15
OC[C@H]1O[C@@H](n2cnc3c(NC4CCCC4)nc(Cl)nc32)[C@H](O)[C@@H]1O	0.47
COc1cc(N)c(Cl)cc1C(=O)NC1CCN(CCCOc2ccc(F)cc2)CC1OC.O (centres unmarked)	0.29

Some of these lines once more (set 1):
target	test	conditions	IC50
ANO1 del476-501/M544A		membrane voltage 20 mV	3.44 µM
ANO1 D383A/del476-501		membrane voltage -60 mV	14.3 µM
Anoctamin-1 (ANO1, Homo sapiens, UniProt Q5XXA6, del476-501/F628Y)	inhibitor	40 mV holding voltage	24.7 µM
Anoctamin-1 (ANO1, Homo sapiens, UniProt Q5XXA6, del476-501/F803A)		membrane voltage 60 mV	11.7 µM
